Measured values pooled from the literature.
Parts stem from different laboratories: compare values within a part only.
Sequence of UniProt Q38826 (whole entry, looked up): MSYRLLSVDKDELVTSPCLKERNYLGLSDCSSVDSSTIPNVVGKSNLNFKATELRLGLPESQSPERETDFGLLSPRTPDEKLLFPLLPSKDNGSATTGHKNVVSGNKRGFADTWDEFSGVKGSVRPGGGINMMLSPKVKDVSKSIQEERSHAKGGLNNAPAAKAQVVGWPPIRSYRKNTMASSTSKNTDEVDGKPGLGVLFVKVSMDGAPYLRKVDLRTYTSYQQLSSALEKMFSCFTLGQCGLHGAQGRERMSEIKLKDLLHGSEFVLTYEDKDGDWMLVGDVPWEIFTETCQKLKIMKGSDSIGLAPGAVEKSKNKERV
Sequence of UniProt Q94JM3 (whole entry, looked up): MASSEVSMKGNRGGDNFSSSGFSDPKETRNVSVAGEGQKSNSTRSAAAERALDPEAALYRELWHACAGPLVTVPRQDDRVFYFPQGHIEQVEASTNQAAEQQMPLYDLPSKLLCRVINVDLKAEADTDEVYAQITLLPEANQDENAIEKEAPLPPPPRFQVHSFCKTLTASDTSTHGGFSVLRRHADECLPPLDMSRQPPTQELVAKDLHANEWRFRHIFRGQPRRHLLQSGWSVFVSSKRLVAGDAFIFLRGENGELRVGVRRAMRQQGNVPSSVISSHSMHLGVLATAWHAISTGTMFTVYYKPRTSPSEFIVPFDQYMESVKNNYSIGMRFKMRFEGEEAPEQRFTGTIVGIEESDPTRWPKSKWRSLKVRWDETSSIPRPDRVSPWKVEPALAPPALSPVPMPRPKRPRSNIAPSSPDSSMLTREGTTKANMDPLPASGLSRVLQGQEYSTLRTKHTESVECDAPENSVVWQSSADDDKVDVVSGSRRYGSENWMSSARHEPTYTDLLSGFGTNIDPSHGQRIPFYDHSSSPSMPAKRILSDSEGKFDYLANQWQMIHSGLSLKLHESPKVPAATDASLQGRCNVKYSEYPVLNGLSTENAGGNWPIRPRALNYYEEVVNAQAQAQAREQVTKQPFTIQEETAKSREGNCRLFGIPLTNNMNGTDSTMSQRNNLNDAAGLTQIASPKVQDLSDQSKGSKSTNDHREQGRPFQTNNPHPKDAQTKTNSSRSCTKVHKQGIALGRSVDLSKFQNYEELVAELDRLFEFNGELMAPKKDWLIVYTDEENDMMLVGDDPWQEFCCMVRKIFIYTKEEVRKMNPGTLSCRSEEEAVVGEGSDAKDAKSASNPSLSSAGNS
Sequence of UniProt Q9FX25 (whole entry, looked up): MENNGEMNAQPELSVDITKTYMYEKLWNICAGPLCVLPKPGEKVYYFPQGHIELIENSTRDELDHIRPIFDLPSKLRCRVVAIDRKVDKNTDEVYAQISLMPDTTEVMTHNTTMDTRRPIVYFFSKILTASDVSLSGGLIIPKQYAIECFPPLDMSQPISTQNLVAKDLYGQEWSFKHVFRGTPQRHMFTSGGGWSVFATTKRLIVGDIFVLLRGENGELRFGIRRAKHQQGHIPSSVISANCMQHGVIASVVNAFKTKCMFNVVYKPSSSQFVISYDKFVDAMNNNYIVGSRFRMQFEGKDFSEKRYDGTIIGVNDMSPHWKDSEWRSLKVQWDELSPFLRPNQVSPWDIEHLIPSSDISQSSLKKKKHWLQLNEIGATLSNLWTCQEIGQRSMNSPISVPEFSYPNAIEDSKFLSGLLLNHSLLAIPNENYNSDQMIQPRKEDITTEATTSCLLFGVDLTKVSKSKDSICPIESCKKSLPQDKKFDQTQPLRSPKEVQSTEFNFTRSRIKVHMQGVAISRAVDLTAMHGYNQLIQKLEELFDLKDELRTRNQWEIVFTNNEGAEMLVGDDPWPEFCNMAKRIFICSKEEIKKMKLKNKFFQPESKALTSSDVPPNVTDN
Sequence of UniProt O24409 (whole entry, looked up): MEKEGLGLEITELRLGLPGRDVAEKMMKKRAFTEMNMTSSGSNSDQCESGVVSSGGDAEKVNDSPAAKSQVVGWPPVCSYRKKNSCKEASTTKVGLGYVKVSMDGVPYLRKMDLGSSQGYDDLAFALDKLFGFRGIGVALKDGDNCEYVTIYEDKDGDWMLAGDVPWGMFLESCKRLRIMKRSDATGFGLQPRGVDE
Sequence of UniProt Q8RYC6 (whole entry, looked up): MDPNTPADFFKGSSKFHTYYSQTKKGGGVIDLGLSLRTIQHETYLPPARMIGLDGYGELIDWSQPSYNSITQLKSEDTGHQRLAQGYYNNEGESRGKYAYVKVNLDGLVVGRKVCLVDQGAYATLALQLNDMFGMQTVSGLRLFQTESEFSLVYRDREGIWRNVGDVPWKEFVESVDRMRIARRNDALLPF
Sequence of UniProt Q8RYC8 (whole entry, looked up): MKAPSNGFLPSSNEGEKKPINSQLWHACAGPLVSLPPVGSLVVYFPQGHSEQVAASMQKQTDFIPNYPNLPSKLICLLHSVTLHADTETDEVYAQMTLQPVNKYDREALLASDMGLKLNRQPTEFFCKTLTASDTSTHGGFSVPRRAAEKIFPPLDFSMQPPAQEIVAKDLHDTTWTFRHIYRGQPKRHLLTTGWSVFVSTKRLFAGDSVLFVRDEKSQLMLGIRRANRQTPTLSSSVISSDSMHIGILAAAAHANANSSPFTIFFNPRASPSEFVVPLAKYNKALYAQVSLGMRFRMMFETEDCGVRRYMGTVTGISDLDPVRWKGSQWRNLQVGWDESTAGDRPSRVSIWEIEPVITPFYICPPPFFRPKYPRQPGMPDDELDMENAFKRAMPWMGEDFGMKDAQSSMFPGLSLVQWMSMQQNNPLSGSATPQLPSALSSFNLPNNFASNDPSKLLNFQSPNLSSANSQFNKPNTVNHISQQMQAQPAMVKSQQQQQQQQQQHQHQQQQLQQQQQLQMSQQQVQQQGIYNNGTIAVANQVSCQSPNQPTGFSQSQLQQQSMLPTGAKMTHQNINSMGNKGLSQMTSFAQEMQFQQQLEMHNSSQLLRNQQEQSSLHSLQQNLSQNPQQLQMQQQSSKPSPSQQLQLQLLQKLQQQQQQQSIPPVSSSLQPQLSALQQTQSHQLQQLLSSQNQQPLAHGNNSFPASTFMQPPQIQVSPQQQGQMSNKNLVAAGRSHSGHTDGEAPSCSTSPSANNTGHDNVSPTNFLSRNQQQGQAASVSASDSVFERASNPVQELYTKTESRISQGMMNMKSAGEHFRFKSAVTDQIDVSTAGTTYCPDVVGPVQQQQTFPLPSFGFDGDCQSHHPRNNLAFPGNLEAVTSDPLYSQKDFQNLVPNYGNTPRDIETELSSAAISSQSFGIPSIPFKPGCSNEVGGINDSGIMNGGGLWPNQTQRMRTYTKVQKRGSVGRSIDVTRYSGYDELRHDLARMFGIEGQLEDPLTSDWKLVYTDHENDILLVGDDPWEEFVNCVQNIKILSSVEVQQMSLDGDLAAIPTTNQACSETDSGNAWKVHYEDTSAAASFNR
Sequence of UniProt Q38828 (whole entry, looked up): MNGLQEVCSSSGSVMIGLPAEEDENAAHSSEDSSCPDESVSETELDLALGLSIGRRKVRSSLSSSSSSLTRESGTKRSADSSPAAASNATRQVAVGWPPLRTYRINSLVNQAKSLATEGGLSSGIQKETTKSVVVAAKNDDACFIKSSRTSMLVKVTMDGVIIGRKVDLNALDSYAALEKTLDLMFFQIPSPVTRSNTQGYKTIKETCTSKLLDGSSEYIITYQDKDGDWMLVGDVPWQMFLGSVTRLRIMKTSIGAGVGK

Series 1 — technique: RNA Bind-n-Seq; form: RNA; sample: in vitro; tested at: 365 nM; reference: no-protein control; reading: higher = stronger binding; endpoint: RBNS enrichment (R)
Target: RNA binding protein fox-1 homolog 2, RRM domain, GST-SBP tag (RBFOX2, Homo sapiens, UniProt O43251-10, residues 100-194)
Notes: natural RNA segment, single round, ends assumed
Constant ends, left off below: GGGAGUUCUACAGUCCGACGAUC … UGGAAUUCUCGGGUGCCAA
Construct (chain): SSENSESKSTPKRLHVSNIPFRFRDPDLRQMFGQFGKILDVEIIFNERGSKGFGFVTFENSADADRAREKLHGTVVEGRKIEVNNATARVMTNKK
AGAUCCAUCCCACACCCAGACAGAACCUUUCCCUUGGGAGCAGCACAGGGGUCCCACAUUCUUGUGUAGUUUGCACAGGUACAUGUGCAGUUUCCUGAAGGAUGGAGGGA: 0.375
GACAGUAUUUUGUUUUGCUUUGAUUUGGGGGGGAAGGGUUCAUCUUGCUUUUGGAGGUUGUUUUGGGGAAAAAACAGUUUAUAUAAACUGAUUUUUGUAGUUUUGGUAUU: 2.6
CCCAACUCCCGAAUCCUCUCUUGAGUGUGGACCUCAACACCUUGAGCCCUAGUAAAGGAACUAUGCAAAUGCAGGCCACUCUCCCCACCACGUCUGUGCCCUGCACUGUC: 0.353
UCCCCAUCUCAGGGUCAGACCAGCCUUCUCUCUUUACCUUCUUUAACCUGUCUCCCCUCCCUGGUUGGUUGAGUUGAAGAAGAAGAAAGAAAGCUGAGGAGAGGGGGAAG: 0.347
ACGGGAGCUUGGAGAACGUUUUCUAGAAAAGGGUUAGCUUCCUGUUGGCAUGAAAUUUUCCAAGCAAACCUCAUUAAACAUCUGUUGUUUGUUAAAGAUGUUCCACUGAA: 0.801
AGUUGUGUUUGUGUUAGCAUGUGGGUGAUGUAAACUACAAAUUGGGAGCUGUUCCGACCCCCGCUCCUGUGUAAGCAUUCAAUCAGUGUAACUUGCAAAAUGCAUAAACA: 11.2
AUAUGAUUUUUUGACAGGCUGUUUCCUCGUCGUAUAGAUUUUUUCCAAUCAAACCUACUUUUUCCAUACUCUGUGCAUAUUUUUUGUGAAGUUAUACACAUUGAAGACCC: 1.01
CUUUUUAACCUGGGCUUAGCCACCUGCUCUGUGAUCCAGGGCUUACCUUCUUUGGGCCUCGGCCUCCUAAUCUGGGUAAUGGGGAGGACUUCAUUGGCAUUGUUAGUCCC: 0.425
GAGAAAUAGCACUCUUCUCCCUUCCCCCAGAUGGCAGGGCUCUGGCCUCCCUACACCUCAUACCCUGCCUGCCUCCUCCAGGAGGAAUCUCCGGGGCCCCUUCCUGACUC: 1.1
UUGCAAAAAAACAAAACCUGAAGUUGGUUUAUUGAAAGAAUUAUAAGGAUAGCUUCUAGGGAUAUUAGUAAUAGAUUGCCAUGAUCCUGAAGCCUCUUCUCAGAACACUG: 0.382
CUGCGGAAGUGGAAGGUGGAACUCUAGCCCUGAAGUCACGCCUUGGCCCUGACAUCCCCACAUGCCCGCAGAGAUCCUCUUUGAGUGUCUGUCUUUGUCCAGGUUUCAGA: 0.419
AAAGAUAACCUAGUCGAUUGAAUUGGCCAUGGGAAGUUAGGUCACAGUCUUAUAAACAAAGUAAAUAGGACAGAGACUAAGUUUUAGGGAGACAUCUUGGCCUCCUAGGC: 0.51

Series 2 — technique: universal PBM; form: double-stranded DNA, one strand shown; sample: in vitro; tested at: 600 nM; reading: higher = stronger binding; endpoint: E-score
Target: Sal-like protein 4, full length isoform A (SALL4, Homo sapiens, UniProt Q9UJQ4, residues 1-1053)
Sequence of UniProt Q9UJQ4 (whole entry, looked up): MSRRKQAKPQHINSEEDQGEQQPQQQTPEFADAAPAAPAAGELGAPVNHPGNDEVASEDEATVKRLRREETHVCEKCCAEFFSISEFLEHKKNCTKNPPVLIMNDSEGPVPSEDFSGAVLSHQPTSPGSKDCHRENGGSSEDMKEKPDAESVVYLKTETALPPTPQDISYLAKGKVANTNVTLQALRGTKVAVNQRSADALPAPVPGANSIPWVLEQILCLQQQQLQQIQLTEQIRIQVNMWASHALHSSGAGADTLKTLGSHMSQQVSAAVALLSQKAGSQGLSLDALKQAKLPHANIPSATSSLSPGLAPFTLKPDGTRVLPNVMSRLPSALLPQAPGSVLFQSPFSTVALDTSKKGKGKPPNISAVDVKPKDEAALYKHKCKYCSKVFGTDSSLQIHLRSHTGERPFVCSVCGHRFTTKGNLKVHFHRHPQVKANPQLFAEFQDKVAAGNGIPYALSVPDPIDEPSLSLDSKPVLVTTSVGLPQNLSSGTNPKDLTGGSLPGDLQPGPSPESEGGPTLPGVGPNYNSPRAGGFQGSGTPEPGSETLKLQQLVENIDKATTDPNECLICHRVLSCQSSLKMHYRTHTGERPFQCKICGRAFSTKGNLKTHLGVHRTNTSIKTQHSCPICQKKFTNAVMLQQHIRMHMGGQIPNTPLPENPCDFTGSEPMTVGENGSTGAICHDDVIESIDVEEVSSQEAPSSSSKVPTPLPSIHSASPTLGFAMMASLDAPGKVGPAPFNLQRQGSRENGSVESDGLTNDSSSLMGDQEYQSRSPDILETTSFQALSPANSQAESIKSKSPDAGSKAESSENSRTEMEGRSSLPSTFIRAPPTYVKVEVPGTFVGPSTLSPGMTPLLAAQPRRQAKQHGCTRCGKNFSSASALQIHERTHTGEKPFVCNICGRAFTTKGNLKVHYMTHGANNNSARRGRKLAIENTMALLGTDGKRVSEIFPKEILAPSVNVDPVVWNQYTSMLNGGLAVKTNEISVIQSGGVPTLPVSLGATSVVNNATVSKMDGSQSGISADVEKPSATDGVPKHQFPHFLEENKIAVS
Notes: 8-mer, flanks averaged, mean of replicates
AGGTCCAT: 0.0946
CCCCGGGA: -0.303
GAGTAACA: 0.154
AGCGAGAT: 0.0431
CTACCTAC: 0.0187
GTCATCCA: -0.0802
AACCATGG: -0.0495
AGTGGACA: 0.0176
AAGAGCTG: -0.173
ACAGCACC: -0.258
GGCTTTTA: 0.0247
AGTGTTAC: 0.147
AGGCCTGG: -0.404
CTATTTTA: 0.291
GGGCAGAA: 0.0109
AATGGAGT: 0.0518
AAATGTTA: 0.275
ATGGAAAG: 0.182

Series 3 — technique: RNA Bind-n-Seq; form: RNA; sample: in vitro; tested at: not given; reference: input RNA pool; reading: higher = stronger binding; endpoint: bound/input enrichment
Target: RING finger protein unkempt homolog, zinc fingers 1-6, GST-SBP tag (UNK, Homo sapiens, UniProt Q9C0B0, residues 30-357)
Sequence of UniProt Q9C0B0 (30-357, looked up): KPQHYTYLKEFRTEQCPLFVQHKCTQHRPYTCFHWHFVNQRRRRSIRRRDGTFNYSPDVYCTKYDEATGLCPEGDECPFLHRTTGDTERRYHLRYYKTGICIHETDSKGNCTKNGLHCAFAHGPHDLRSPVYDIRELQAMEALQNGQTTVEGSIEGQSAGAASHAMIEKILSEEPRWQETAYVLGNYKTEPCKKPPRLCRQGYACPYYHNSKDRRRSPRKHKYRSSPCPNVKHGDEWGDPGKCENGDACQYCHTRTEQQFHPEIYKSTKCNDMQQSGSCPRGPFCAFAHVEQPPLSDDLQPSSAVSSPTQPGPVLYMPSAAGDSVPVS
Notes: RNA with constant flanks, human-mouse chimeric sites, ends assumed
Constant ends, left off below: GGGAGUUCUACAGUCCGACGAUC … CAACAGAGGAUUGAGCAUCA
ACUCAGAGAUCCACCUCCCAAAGUGCUGGGAGUAAAGUCUGAUAUUAUCAAUUCUCCUUGAUGGAUAUAUAUUUUUUUUAAUAUGAAUCUUCCUGUUCGUCCAGGGAAGAAAGAUUUGUU: 0.515 ratio
AUAGAUGAAAUUGAUGUGGACCAGGAAGGAAUUGCUGAAAUGAUGCUGGAUGAAAAUGCUAUUGCUCAGGUCCCACGCCCUGGCACAUCUUUGAAGCUCCCUGGAACUAACCAAACAGGA: 0.238 ratio
CUGGCCUGGCCCUCCCCAGGGGCCUCCUUUCGUAUAGUCACUGCUUCUGCAUCAGAUACUUUCAGCUGCAACUCCCUACUGGGUGGGGCACCUAUCUGAGGCAGGGUGUUUUGGUACCCU: 0.229 ratio
CCCCACAACCAUUUGCAGGUCUGGAACUGCACUCUCUUUUUUAAAAAAUAUGCAUAUAUUUUAGGGCUGUAGAUUUAUUUUCCUGGUUUUGUUUUUCAUUGCUGACUUUUGAGCACAGAA: 1.07 ratio
GUGACUGGUGUUAAGAUUUCCCCUCAGCAAAGAAGUGCAGUAGUCACCAUAAUUCCAUCUAUAGUGAAUGCCAAUCAGAUUGUGGAGCUGGUCCCAGACCUCAGUUUAGACAUGGGAACU: 6.02 ratio
AAAGAACCUCUCUCUGAAGAAGAGGAAGAAGACAAUGAUGAUGUUGAACCCAUUUCUGAAUUUCGAUUUGUGCCCAGUGAUAAGUCAGCAUUGGAGGCAAUGUUCACAGCAAUGUGUGAG: 0.188 ratio
UCUGGUCACACUCGUGUGUAUGGUGUUUGCUUUGUGGACACUUCACUGGGCAAGUUUUUCAUAGGUCAGUUUUCGGAUGACCGCCACUGUUCCAGAUUUAGGACGCUAGUGGCACACUAU: 0.244 ratio
UUAAACACCAAGCUGAUGGACUCUGAUGGCCUCCAUCUCUCAGGCACGUGUGCCUUCUCUUAGUCCCUGUUUUCGGGAUGUUAUGAAUCUCAGUACUGUGGUUUGAAAGCACCAGCUUUG: 0.155 ratio
CUGUGUGUGCUGAAUAAAUGGCUUGUAAGAACUGUCCUCCAAGCUGUAACCCAUGCUGUUAUUAUAGUUGCUGCAAAAUGUCUCUUAUGAUAUUGAUUUUAUUUGUUAACUGAAGGUCUC: 0.411 ratio
GCUCCUCCCCGCUCUGCAGCCUGGGGACACUGGGCUGGGACCAGAAUCCAGCUUUCUUUUAAAACUCUCAGUGUAACUUCUUUUUCUUUUUUUCUUUUUUUUUUAAAUAGUGUAUUUUUU: 81.4 ratio
CCUCUGCCCCGCUCUGCAGCCUGGGGACACUGGGCUGGGACCAGAAUCCAGCUUUCUUUUAAAACUCUCAGUGUAACUGUAUCCCGUGACAUUUCAUUUUUUUUAAAAGAAAAAAACUUU: 0.285 ratio

Series 4 — Sequence: B1 (IAA3); technique: two-hybrid; reference: out of 4 tests; reading: higher = firmer interaction; endpoint: positive tests
T1: itself; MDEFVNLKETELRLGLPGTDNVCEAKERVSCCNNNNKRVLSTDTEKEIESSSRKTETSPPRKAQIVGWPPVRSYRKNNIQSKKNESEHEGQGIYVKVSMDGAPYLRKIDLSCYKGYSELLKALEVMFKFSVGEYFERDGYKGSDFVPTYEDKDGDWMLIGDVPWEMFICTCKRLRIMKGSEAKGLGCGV
B1: IAA3 (Arabidopsis thaliana, UniProt Q38822); chain MDEFVNLKETELRLGLPGTDNVCEAKERVSCCNNNNKRVLSTDTEKEIESSSRKTETSPPRKAQIVGWPPVRSYRKNNIQSKKNESEHEGQGIYVKVSMDGAPYLRKIDLSCYKGYSELLKALEVMFKFSVGEYFERDGYKGSDFVPTYEDKDGDWMLIGDVPWEMFICTCKRLRIMKGSEAKGLGCGV
IAA32 (Arabidopsis thaliana, UniProt Q8RYC6): 0
T1, itself: 2
IAA8 (Arabidopsis thaliana, UniProt Q38826): 4
ARF13 (Arabidopsis thaliana, UniProt Q9FX25): 0
ARF19 948-1086 (Arabidopsis thaliana, UniProt Q8RYC8): 4
IAA10 (Arabidopsis thaliana, UniProt Q38828): 1
ARF2 727-859 (Arabidopsis thaliana, UniProt Q94JM3): 0
IAA19 (Arabidopsis thaliana, UniProt O24409): 4

Series 5 — technique: RNA Bind-n-Seq; form: RNA; sample: in vitro; tested at: 20 nM; notes: 6-mer, flanks averaged, single round; together with: 150 mM KCl; reference: input library; reading: higher = stronger binding; endpoint: 6-mer enrichment (R)
Target: TAR DNA-binding protein 43, full length, His tag (TARDBP, Homo sapiens, UniProt Q13148, residues 1-414)
AGAGGU: 1.54
GGCUAU: 0.905
UUAUAU: 0.624
GACUCU: 0.619
CGCUAU: 0.616
UGUCAA: 0.65
CACCCA: 0.717
CAUUUC: 0.568
GGCCUU: 0.934
GAGAUA: 0.856
CUAAAC: 0.585
ACGUUC: 0.558
GUGGAA: 1.58
AACCGG: 0.974
CUGCUG: 0.813
AACGCG: 0.938
UAAUUG: 0.672
ACCGUA: 0.635
AGAGAC: 0.834
